Literature values that unrelated publications cite.
Lines come from different studies, so protocols differ. In brackets after ≈: the same amount, converted by molar mass.
lasR: Transcriptional activator protein LasR (lasR, Pseudomonas aeruginosa, UniProt P25084)
Sequence of UniProt P25084 (whole entry, looked up): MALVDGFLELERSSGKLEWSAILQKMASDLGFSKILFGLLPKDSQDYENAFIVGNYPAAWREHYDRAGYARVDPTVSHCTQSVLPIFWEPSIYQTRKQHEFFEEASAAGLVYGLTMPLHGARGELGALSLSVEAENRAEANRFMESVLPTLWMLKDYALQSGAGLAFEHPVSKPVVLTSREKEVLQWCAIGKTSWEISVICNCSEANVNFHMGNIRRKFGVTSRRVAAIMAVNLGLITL

| SMILES | target or system | assay | system | setting | endpoint | value |
| --- | --- | --- | --- | --- | --- | --- |
| Oc1c(Br)cc(Br)c2nc3cc(Cl)ccc3nc12 | Staphylococcus aureus |  | MRSA | planktonic cells | MIC | 0.1 µM (≈ 0.0388 µg/mL) |
| O=C(CCCOc1cccc(Br)c1)N[C@H]1CCSC1=O | lasR | rsaL-gfp reporter, partial agonist |  | 100 nM | activation | ~75% |
| NS(=O)(=O)c1nnc(NC(=O)CCc2ccccc2)s1 | Enterococcus |  | vancomycin-resistant, three strains | range across strains | MIC | 0.192 to 0.384 µM (≈ 0.06 to 0.12 µg/mL) |
| O=C(NCCN1CCCC2=CC3CC(CN4CCCCC34)C21)c1ccc(OC(F)(F)F)cc1 (centres unmarked) | HIV-1 NL4-3 Nanoluc | viral replication | MT-4 |  | IC50 | > 40000 nM |
| CCCCCCCCCC(=O)CC(=O)Nc1ccccc1O | lasR | lasI-gfp(LVA) reporter, inhibitor | PAO-JP2 | 100 µM | inhibition | 90% |
| CC[C@H](C)[C@H](NC(=O)[C@H](CCCNC(=N)N)NC(=O)[C@@H](NC(=O)[C@@H]1CCCN1C(=O)[C@H](CCCNC(=N)N)NC(=O)[C@@H](NC(=O)[C@@H]1CCCN1C(=O)[C@H](CC(C)C)NC(=O)[C@H](CC(C)C)NC(=O)CNC(=O)[C@H](Cc1c[nH]cn1)NC(=O)[C@@H]1CCCN1C(=O)CNC(=O)[C@H](Cc1ccccc1)NC(=O)[C@H](CC(=O)O)NC(=O)[C@H](Cc1c[nH]c2ccccc12)NC(=O)[C@H](C)NC(=O)[C@@H](NC(=O)[C@H](C)N)[C@@H](C)O)[C@@H](C)CC)[C@@H](C)CC)C(=O)N[C@@H](CCCNC(=N)N)C(=O)N1CCC[C@H]1C(=O)N[C@@H](CC(C)C)C(=O)N[C@@H](CS)C(=O)NCC(=O)N[C@@H](CCCCN)C(=O)N[C@@H](CC(=O)O)C(=O)O | Escherichia coli |  |  |  | MIC | > 128 µM |
| C[C@H](N)C(=O)N[C@@H](CO)C(=O)N[C@@H](C)C(=O)N[C@H]1CSC(=O)[C@H](Cc2ccccc2)NC(=O)[C@H](Cc2ccc(O)cc2)NC(=O)[C@H](C)NC(=O)[C@H](C)NC1=O | Staphylococcus epidermidis | agr quorum sensing | agr groups I-III | 0.025 µM | inhibition | > 85% |
| Cc1ccc(NC2CNC2)cc1C(=O)N[C@H](C)c1cccc(-c2ccc(CNC3CCCC3)s2)c1 | SARS-CoV-2 | viral replication | A549 |  | EC50 | 1400 nM |
| CC[C@H](C)[C@H](NC(=O)[C@H](CCCNC(=N)N)NC(=O)[C@@H]1CCCN1C(=O)[C@H](CCCNC(=N)N)NC(=O)[C@H](Cc1ccccc1)NC(=O)[C@H](Cc1c[nH]cn1)NC(=O)[C@H](CCCNC(=N)N)NC(=O)[C@H](CC(C)C)NC(=O)[C@H](CCCCN)NC(=O)CNC(=O)[C@H](CC(C)C)NC(=O)[C@H](Cc1ccccc1)NC(=O)[C@H](CCCNC(=N)N)NC(=O)CNC(=O)[C@H](Cc1ccccc1)NC(=O)[C@H](CCCNC(=N)N)NC(=O)CNC(=O)[C@H](CCCNC(=N)N)NC(=O)[C@H](CCC(N)=O)NC(=O)[C@@H](NC(=O)[C@@H](N)CC(C)C)[C@@H](C)CC)C(=O)N[C@@H](CCCCN)C(=O)N[C@@H](Cc1ccccc1)C(=O)N[C@@H](CCCCN)C(=O)NCC(=O)N[C@@H](CCCCN)C(=O)N[C@@H](C)C(=O)NCC(=O)N[C@@H](Cc1c[nH]c2ccccc12)C(=O)N[C@H](C(=O)N[C@H](C(=O)NCC(=O)O)C(C)C)[C@@H](C)O | Pseudomonas aeruginosa |  |  |  | MIC | 32 µM (≈ 121 µg/mL) |
| CC(=O)OC1C(=O)C2(C)C(O)CC3OCC3(OC(C)=O)C2C(OC(=O)c2cccc(OC(F)(F)F)c2)C2(O)CC(OC(=O)C(O)C(C=C(C)C)NC(=O)OC(C)(C)C)C(C)=C1C2(C)C (centres unmarked) | CFPAC-1 | cytotoxicity |  |  | IC50 | 0.57 nM |
| Cc1ccc(Cn2cc(C(=O)NCCOCCO)c(=O)c3cc(C(=O)/C=C/c4ccc([N+](=O)[O-])o4)ccc32)cc1 | Trypanosoma brucei brucei | parasite growth |  |  | IC50 | 80 nM |

For quick reference, copied from above:
| SMILES | target or system | assay | system | setting | endpoint | value |
| --- | --- | --- | --- | --- | --- | --- |
| CC[C@H](C)[C@H](NC(=O)[C@H](CCCNC(=N)N)NC(=O)[C@@H](NC(=O)[C@@H]1CCCN1C(=O)[C@H](CCCNC(=N)N)NC(=O)[C@@H](NC(=O)[C@@H]1CCCN1C(=O)[C@H](CC(C)C)NC(=O)[C@H](CC(C)C)NC(=O)CNC(=O)[C@H](Cc1c[nH]cn1)NC(=O)[C@@H]1CCCN1C(=O)CNC(=O)[C@H](Cc1ccccc1)NC(=O)[C@H](CC(=O)O)NC(=O)[C@H](Cc1c[nH]c2ccccc12)NC(=O)[C@H](C)NC(=O)[C@@H](NC(=O)[C@H](C)N)[C@@H](C)O)[C@@H](C)CC)[C@@H](C)CC)C(=O)N[C@@H](CCCNC(=N)N)C(=O)N1CCC[C@H]1C(=O)N[C@@H](CC(C)C)C(=O)N[C@@H](CS)C(=O)NCC(=O)N[C@@H](CCCCN)C(=O)N[C@@H](CC(=O)O)C(=O)O | Escherichia coli |  |  |  | MIC | > 128 µM |
